Measured values pooled from the literature.
Compare with care: the assays were run in different laboratories. ± gives the spread as reported.
Method: steady-state kinetics
B1: moaA (Staphylococcus aureus, UniProt P69848); chain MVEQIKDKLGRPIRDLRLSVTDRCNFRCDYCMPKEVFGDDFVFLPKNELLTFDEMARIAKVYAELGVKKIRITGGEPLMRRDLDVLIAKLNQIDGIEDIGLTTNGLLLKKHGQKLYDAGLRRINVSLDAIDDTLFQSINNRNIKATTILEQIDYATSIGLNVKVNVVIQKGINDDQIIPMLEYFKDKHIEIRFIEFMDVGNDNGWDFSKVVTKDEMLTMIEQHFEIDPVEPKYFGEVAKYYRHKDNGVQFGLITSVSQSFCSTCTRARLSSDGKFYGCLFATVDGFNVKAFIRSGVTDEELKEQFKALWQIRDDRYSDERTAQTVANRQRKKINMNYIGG
B2: protein (Shewanella denitrificans, UniProt Q12KT8); chain MIHKLADVQSQNIGDNTKVWQFCVILAGAVIGRNCNICANSLIENDVVIGDNVTIKSGVQIWDGIHIQDDVFIGPNVTFTNDKQPRSKIYPDEYLKTIVKKGASIGANSTILPGILIGENAMVGAGAVITKNVPDNAIVIGNPGRITGYVEANTGVIMPSNNFELKLQMSKVKGVSLHKFHLVNDLRGNLSVGEFEKDIPFTPKRYFTVFGVPNKEVRGEHAHKECKQFLICVSGNCSVLVDDGENREEYVLDSIDKGIYLPPMTWGVQYKYSKDAVLLVFASHYYDSDDYIRDYSTFKQMRQN
B3: onr (Enterobacter cloacae, UniProt P71278); chain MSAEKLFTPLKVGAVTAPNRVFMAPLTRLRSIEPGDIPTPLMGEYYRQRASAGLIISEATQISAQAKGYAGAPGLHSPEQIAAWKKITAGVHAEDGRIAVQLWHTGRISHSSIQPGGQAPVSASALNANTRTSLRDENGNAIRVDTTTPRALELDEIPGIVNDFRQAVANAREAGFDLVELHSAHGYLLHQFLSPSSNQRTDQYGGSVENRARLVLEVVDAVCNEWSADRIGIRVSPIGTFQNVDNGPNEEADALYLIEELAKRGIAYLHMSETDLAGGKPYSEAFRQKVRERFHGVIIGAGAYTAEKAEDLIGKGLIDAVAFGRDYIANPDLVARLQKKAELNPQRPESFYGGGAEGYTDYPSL
B4: bga E532Q (Niallia circulans, UniProt E5RWQ2); chain GNSVSYDGERRVNFNENWRFQRETNGSIAGAQNPGFDDSSWRKLNLPHDWSIELDFNKNSLATHEGGYLDGGIGWYRKTFTIPESMKGKRISLDFDGVYMNSTTYLNGEVLGTYPFGYNAFSYDISDKLYKDGRANVLVVKVNNTQPSSRWYSGSGIYRNVYLTVTDPIHVARYGTFVTTPNLEKSIKEDRADVNIKTKISNDAAEAKQVKIKSTIYDGAGNTVQTVETEEKTAAAGTVTPFEQNTVIKQPKLWSIDKPYRYNLVTEVIVGGQTVDTYETKFGVRYFKFDENEGFSLNGEYMKLHGVSMHHDLGALGAATNARGVERQMQIMKDMGVNAIRVTHNPASPELLEAANKLGLFIIEEAFDSWAQSKKPYDYGRFFNAWAEHDIKEMVDRGKNEPAIIMWSIGNEIYDTTNAAGVETARNLVGWVKEIDTTRPTTIGEDKTRGDKVNVTPINSYIKEIFNIVDVVGLNYSENNYDGYHKQNPSWKLYGSQTSSATRSRGVYTHPYQYNQSTKYADLQQSSYDNDYVGWGRTAEDAWKYDRDLKHIAGQFIWTGFDYIGEPTPYYNSYPAKSSYFGAVDTAGFPKDIFYYYQSQWKKEPMVHLLPHWNWKEGEKVRVLAYTNASKVELVLNGESLGEKNYDNKQTSWGAPYKETKDGKTYLEWAVPFKPGKLEAVAKDENGKVIARDQVVTAGEPASVRLTADRKVVKADGTDLSFITADIVDSKGIVVPDADHLITFNVTGQGELAGVDNGNASSVERYKDNKRKAFSGKALAIVQSSKLSGKITVHASVAGLSSDSTSVFTVTP
B5: enzyme (Thermobifida fusca, UniProt Q47RA9); chain MIMIMASKSSPHDLPDVSGLSIAVLGGTGDQGRGLARRFAMAGHEVILGSRSAERAQAVAAELGEGLPVRGMDNAGAAEAGDVVIVAVPWDGHRALLESLKDVLAGKIVVDCVNPLGFDKRGAYALPVEEGSAAEQAAAILPDSRVVAAFHHVSAVLLLDPEVEKVDLDVLVLGDDREATDVVRALAARIPGVRGVYGGRLRNAHQVEAFTANLISINRRYKAHAGIRITDI
B6: YdjH (Escherichia coli, UniProt P77493); chain MDNLDVICIGAAIVDIPLQPVSKNIFDVDSYPLERIAMTTGGDAINEATIISRLGHRTALMSRIGKDAAGQFILDHCRKENIDIQSLKQDVSIDTSINVGLVTEDGERTFVTNRNGSLWKLNIDDVDFARFSQAKLLSLASIFNSPLLDGKALTEIFTQAKARQMIICADMIKPRLNETLDDICEALSYVDYLFPNFAEAKLLTGKETLDEIADCFLACGVKTVVIKTGKDGCFIKRGDMTMKVPAVAGITAIDTIGAGDNFASGFIAALLEGKNLRECARFANATAAISVLSVGATTGVKNRKLVEQLLEEYEG
B7: Mj-MAT W387F (Methanocaldococcus jannaschii, UniProt Q58605); chain MRNIIVKKLDVEPIEERPTEIVERKGLGHPDSICDGIAESVSRALCKMYMEKFGTILHHNTDQVELVGGHAYPKFGGGVMVSPIYILLSGRATMEILDKEKNEVIKLPVGTTAVKAAKEYLKKVLRNVDVDKDVIIDCRIGQGSMDLVDVFERQKNEVPLANDTSFGVGYAPLSTTERLVLETERFLNSDELKNEIPAVGEDIKVMGLREGKKITLTIAMAVVDRYVKNIEEYKEVIEKVRKKVEDLAKKIADGYEVEIHINTADDYERESVYLTVTGTSAEMGDDGSVGRGNRVNGLITPFRPMSMEAASGKNPVNHVGKIYNILANLIANDIAKLEGVKECYVRILSQIGKPINEPKALDIEIITEDSYDIKDIEPKAKEIANKFLDNIMEVQKMIVEGKVTTF
B8: protein F222A (Planktothrix agardhii, UniProt F5B6Z0); chain MIVNVIQKDRLKEQKLQFIRNHQQAFDVEPIYPLPLFEDFVTSIEGDCSLEASCKIESDKLIASRFLLFFEDKTQEWQKYLHQSLTFFGLVENRVGVKINYSLLQQFLGSSFDFSKVTVLSAGIDLRNNLAESSLKMHIRIKDYPEKLDKAFALSDGAADGNYLKDFVNLIGFDFYFNGKSEIEIYAEVQEDDFFKPEINNLVWQHFPKTALQPLKASSLFATGLSKANNNPVLYYHLKNRQDLTNYFKLNDTAQRVHSFYQHQDILPYMWVGTAQKELEKTRIENIRLYYYKSFKMESN
B9: LYS1 C205S/D319A (Saccharomyces cerevisiae, UniProt P38998); chain MAAVTLHLRAETKPLEARAALTPTTVKKLIAKGFKIYVEDSPQSTFNINEYRQAGAIIVPAGSWKTAPRDRIIIGLKEMPETDTFPLVHEHIQFAHCYKDQAGWQNVLMRFIKGHGTLYDLEFLENDQGRRVAAFGFYAGFAGAALGVRDWAFKQTHSDDEDLPAVSPYPNEKALVKDVTKDYKEALATGARKPTVLIIGALGRSGSGAIDLLHKVGIPDANILKWDIKETSRGGPFDEIPQADIFINCIYLSKPIAPFTNMEKLNNPNRRLRTVVDVSADTTNPHNPIPIYTVATVFNKPTVLVPTTAGPKLSVISIAHLPSLLPREASEFFSHDLLPSLELLPQRKTAPVWVRAKKLFDRHCARVKRSSRL
B10: protein Y93S (Thermus thermophilus, UniProt Q5SKR5); chain MSAPKPFVIGIAGGTASGKTTLAQALARTLGERVALLPMDHYYKDLGHLPLEERLRVNYDHPDAFDLALYLEHAQALLRGLPVEMPVYDFRASTRSPRRTPVRPAPVVILEGILVLYPKELRDLMDLKVFVDADADERFIRRLKRDVLERGRSLEGVVAQYLEQVKPMHLHFVEPTKRYADVIVPRGGQNPVALEMLAAKALARLARMGAA
Chain of UniProt P19337 (whole entry, looked up): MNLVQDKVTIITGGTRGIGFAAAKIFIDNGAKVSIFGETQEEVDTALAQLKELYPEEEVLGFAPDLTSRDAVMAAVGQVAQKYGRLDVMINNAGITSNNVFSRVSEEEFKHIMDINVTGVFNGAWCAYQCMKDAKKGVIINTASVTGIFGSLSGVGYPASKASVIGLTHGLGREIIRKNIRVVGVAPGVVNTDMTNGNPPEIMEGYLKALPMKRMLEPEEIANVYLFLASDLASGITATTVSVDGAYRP
Chain of UniProt O87170 (whole entry, looked up): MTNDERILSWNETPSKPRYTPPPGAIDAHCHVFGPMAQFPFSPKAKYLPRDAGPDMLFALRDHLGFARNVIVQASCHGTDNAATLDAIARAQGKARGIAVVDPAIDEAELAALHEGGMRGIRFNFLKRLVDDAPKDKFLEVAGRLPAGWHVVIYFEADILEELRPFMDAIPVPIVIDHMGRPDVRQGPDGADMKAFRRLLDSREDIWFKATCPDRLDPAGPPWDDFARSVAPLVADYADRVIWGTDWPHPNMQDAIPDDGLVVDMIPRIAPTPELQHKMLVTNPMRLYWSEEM
Chain of UniProt P14780 (whole entry, looked up): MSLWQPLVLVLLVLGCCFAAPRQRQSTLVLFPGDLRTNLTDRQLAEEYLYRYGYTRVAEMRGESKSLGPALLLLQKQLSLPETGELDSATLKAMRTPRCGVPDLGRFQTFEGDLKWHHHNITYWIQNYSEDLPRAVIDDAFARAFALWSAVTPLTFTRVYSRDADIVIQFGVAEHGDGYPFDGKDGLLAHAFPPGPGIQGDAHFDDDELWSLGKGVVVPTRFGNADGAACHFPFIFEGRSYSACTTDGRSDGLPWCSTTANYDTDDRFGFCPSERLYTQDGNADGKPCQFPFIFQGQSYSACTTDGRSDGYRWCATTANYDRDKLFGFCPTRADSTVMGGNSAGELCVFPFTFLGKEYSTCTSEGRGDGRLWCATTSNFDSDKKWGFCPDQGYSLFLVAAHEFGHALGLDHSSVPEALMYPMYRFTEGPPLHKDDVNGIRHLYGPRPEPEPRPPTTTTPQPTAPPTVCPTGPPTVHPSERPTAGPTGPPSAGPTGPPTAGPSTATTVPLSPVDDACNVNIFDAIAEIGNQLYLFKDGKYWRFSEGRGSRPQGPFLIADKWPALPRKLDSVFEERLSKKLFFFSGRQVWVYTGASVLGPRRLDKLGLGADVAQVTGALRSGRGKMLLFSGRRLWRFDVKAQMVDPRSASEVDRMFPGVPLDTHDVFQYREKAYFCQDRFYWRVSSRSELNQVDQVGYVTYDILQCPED
Chain of UniProt P62694 (whole entry, looked up): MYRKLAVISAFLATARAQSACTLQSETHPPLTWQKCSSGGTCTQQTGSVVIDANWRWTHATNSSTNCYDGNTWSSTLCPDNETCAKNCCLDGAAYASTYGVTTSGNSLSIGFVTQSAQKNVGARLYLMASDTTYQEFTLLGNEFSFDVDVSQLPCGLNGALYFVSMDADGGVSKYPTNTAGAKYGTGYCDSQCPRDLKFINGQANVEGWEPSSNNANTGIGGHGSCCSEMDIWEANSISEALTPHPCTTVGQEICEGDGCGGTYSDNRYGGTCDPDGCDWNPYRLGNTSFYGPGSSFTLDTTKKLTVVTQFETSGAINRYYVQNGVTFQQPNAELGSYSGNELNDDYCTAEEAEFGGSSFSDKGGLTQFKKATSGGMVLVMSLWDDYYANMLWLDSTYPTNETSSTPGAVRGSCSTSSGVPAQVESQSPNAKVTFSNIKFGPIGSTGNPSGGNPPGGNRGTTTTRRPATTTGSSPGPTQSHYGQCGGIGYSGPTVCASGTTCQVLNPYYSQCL
Chain of UniProt Q29437 (whole entry, looked up): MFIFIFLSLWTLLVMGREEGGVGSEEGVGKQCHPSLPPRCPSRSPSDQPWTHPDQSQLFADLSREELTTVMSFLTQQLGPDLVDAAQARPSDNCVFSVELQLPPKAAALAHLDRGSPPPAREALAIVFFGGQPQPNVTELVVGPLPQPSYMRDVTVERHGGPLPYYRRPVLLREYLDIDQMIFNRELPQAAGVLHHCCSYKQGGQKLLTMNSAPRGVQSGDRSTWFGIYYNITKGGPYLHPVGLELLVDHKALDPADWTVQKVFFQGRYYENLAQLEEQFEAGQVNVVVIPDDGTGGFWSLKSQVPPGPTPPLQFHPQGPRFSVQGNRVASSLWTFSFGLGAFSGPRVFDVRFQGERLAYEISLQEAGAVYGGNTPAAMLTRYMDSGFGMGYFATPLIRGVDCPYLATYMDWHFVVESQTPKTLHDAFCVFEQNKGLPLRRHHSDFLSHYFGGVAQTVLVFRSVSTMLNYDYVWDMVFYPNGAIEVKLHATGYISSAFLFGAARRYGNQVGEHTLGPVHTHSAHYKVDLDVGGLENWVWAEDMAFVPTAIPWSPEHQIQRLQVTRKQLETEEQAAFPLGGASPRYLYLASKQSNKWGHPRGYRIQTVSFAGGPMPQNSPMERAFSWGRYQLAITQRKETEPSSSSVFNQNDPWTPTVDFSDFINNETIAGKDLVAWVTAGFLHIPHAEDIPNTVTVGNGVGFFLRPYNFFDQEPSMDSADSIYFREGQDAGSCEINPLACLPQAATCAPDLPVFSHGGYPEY
Chain of UniProt Q6F4M8 (whole entry, looked up): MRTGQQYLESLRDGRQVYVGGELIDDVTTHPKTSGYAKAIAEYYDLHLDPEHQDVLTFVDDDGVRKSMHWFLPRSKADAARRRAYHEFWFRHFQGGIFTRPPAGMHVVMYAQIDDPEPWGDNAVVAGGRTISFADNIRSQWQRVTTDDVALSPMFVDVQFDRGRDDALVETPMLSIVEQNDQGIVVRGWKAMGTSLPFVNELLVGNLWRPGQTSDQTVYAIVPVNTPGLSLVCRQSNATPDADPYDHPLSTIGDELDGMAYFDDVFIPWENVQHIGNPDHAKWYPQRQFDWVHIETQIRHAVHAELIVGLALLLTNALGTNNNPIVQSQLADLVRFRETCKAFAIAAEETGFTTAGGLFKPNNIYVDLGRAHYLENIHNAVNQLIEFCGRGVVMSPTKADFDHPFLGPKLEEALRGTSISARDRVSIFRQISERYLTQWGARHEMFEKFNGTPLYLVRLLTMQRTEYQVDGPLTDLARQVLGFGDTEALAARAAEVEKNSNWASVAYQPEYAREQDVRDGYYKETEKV

Molecule | substrate | pH | temperature | setting | together with | kcat [s⁻¹]
B1 (moaA) | C[S+](CC[C@H](N)C(=O)O)C[C@H]1O[C@@H](n2cnc3c(N)ncnc32)[C@H](O)[C@@H]1O | pH 7.6 | 25 °C |  | GTP, dithionite, MgCl2 1 mM | 0.000717 ± 6.67e-05
B2 (protein) | Cc1cn([C@H]2C[C@H](O)[C@@H](COP(=O)(O)OP(=O)(O)O[C@H]3O[C@H](C)C(=O)[C@H](O)[C@H]3O)O2)c(=O)[nH]c1=O | pH 7.5 |  |  | NADPH 0.2 mM | 4.4 ± 0.3
B3 (onr) | CC1=CC(=O)N(c2ccccc2)C1=O | pH 7 | 25 °C | apparent, anaerobic | NADPH 100 µM | 7.65 ± 0.13
B4 (bga E532Q) | O=[N+]([O-])c1ccccc1O[C@@H]1O[C@H](CO)[C@H](O)[C@H](O)[C@H]1O | pH 6 | 40 °C | low-substrate phase, biphasic |  | 0.2 ± 0.01
BaiA2 (Clostridium scindens, UniProt P19337) | C[C@H](CCC(=O)SCCNC(=O)CCNC(=O)[C@H](O)C(C)(C)COP(=O)(O)OP(=O)(O)OC[C@H]1O[C@@H](n2cnc3c(N)ncnc32)[C@H](O)[C@@H]1OP(=O)(O)O)[C@H]1CC[C@H]2[C@@H]3[C@H](O)C[C@@H]4C[C@H](O)CC[C@]4(C)[C@H]3CC[C@]12C | pH 8.7 | 37 °C |  | NAD+ | 0.2
cbh1 (Trichoderma reesei, UniProt P62694) | O=[N+]([O-])c1ccccc1O[C@@H]1O[C@H](CO)[C@@H](O[C@@H]2O[C@H](CO)[C@@H](O)[C@H](O)[C@H]2O)[C@H](O)[C@H]1O | pH 5 | 25 °C | apparent |  | 6.6e-05 ± 1.5e-05
B5 (enzyme) | NC(=O)c1ccc[n+](CCCO)c1 | pH 8 | 25 °C |  |  | 0.00417 ± 0.000217
protein I23F/S203N/S29F (Manduca sexta, UniProt Q8I8Y1) | Oc1ccc(O)cc1 | pH 7 |  |  |  | 0.733 ± 0.045
enzyme (Rhodococcus opacus, UniProt Q6F4M8) | O=[N+]([O-])c1ccc(O)cc1 | pH 7.5 | 25 °C |  |  | 0.079 ± 0.01
B6 (YdjH) | O=C(CO)[C@@H](O)[C@H](O)[C@H](O)[C@@H](O)CO | pH 7.4 | 30 °C | KCl 100 mM | ATP 2.0 mM, MgCl2 5.0 mM | 0.35 ± 0.01
Plasma amine oxidase (Bos taurus, UniProt Q29437) | CNCCOc1ccc2cc(CN)ccc2c1 | pH 7.2 | 30 °C |  |  | 0.212 ± 0.002
MMP9 (Homo sapiens, UniProt P14780) | CSCC[C@H](NC(=O)CNC(=O)[C@H](CC(C)C)NC(=O)[C@@H]1CCCN1C(=O)CNC(C)=O)C(=O)N[C@@H](Cc1c[nH]cn1)C(=O)NCC(=O)N[C@@H](CCCCN)C(N)=O |  |  |  |  | 168
B7 (Mj-MAT W387F) | CSCC[C@H](N)C(=O)O |  | 55 °C |  | ATP 2.5 mM, methionine 0.05-1 mM | 1.85 ± 0.08
B8 (protein F222A) | CC(C)=CCC/C(C)=C/COP(=O)(O)OP(=O)(O)O |  |  |  | tri-Tyr peptide acceptor | 0.122 ± 0.00433
B9 (LYS1 C205S/D319A) | NC(=O)C1=CN([C@@H]2O[C@H](COP(=O)(O)OP(=O)(O)OC[C@H]3O[C@@H](n4cnc5c(N)ncnc54)[C@H](O)[C@@H]3O)[C@@H](O)[C@H]2O)C=CC1 | pH 7.2 | 25 °C |  | Lys and α-Kg | 35 ± 5
LigI (Sphingobium sp. SYK-6, UniProt O87170) | O=C(O)/C=C(\CC(=O)C(=O)O)C(=O)O | pH 8.25 | 30 °C | reverse reaction, tautomer mixture |  | 116 ± 6
B10 (protein Y93S) | Nc1ccn([C@@H]2O[C@H](CO)[C@@H](O)[C@H]2O)c(=O)n1 | pH 7.2 | 25 °C | KCl 100 mM | ATP 100–200 µM | 7.1 ± 0.6

For quick reference, copied from above:
Molecule | substrate | pH | temperature | setting | together with | kcat [s⁻¹]
BaiA2 (Clostridium scindens, UniProt P19337) | C[C@H](CCC(=O)SCCNC(=O)CCNC(=O)[C@H](O)C(C)(C)COP(=O)(O)OP(=O)(O)OC[C@H]1O[C@@H](n2cnc3c(N)ncnc32)[C@H](O)[C@@H]1OP(=O)(O)O)[C@H]1CC[C@H]2[C@@H]3[C@H](O)C[C@@H]4C[C@H](O)CC[C@]4(C)[C@H]3CC[C@]12C | pH 8.7 | 37 °C |  | NAD+ | 0.2
enzyme (Rhodococcus opacus, UniProt Q6F4M8) | O=[N+]([O-])c1ccc(O)cc1 | pH 7.5 | 25 °C |  |  | 0.079 ± 0.01
B1 (moaA) | C[S+](CC[C@H](N)C(=O)O)C[C@H]1O[C@@H](n2cnc3c(N)ncnc32)[C@H](O)[C@@H]1O | pH 7.6 | 25 °C |  | GTP, dithionite, MgCl2 1 mM | 0.000717 ± 6.67e-05
